Experimental data pooled from the literature.
Compare with care: the assays were run in different laboratories. Several values in a cell are separate wells, animals, samples, runs or records.
Target: Serine/threonine-protein kinase D3 (PRKD3, Homo sapiens, UniProt O94806)

Structure (SMILES) = CNC1C[S+]2CC[S+]3CC[S+](C1)[Ru-4]321([N]=C=S)[n]2c3ccc(OC)cc3c3c4c(c5cc(F)c[n+]1c5c32)C(=O)NC4=O (centres unmarked); assay = KinomeScan; conditions = 0.1 µM; how to read = baseline: untreated; endpoint = remaining binding; result = 81%
Structure (SMILES) = Cc1cccc(O[C@H]2CCC[C@@H](C(C)CNCc3ccncc3)C2)c1 (relative stereo); assay = enzyme activity, inhibitor; conditions = 10 µM; endpoint = inhibition; result = -4%
Structure (SMILES) = COCC12C(=O)NC3C4(C(OC)CC1O)C1CC5(O)C(OC)C(O)C(OC(C)=O)(C1C5OC(=O)c1ccccc1)C3(O)C(OC)C24 (centres unmarked); assay = kinase activity, inhibitor, ProQinase kinase profiling; conditions = 25 µM; how to read = baseline: control; endpoint = remaining activity; result = 97% and 94%
Structure (SMILES) = O=C(Cc1ccc(OCc2ccccc2)cc1)NC1(C(=O)O)CCN(C(=O)c2ccc(-c3cccc(Cl)c3)cc2)CC1; assay = enzyme activity, inhibitor; conditions = 10 µM; endpoint = activity vs control; result = 121%
Structure (SMILES) = COc1c(Cl)cccc1Nc1c(-c2ccncc2C#C[C@@]2(C)CCCN2C(=O)/C=C/CN(C)C)[nH]c2c1C(=O)NCC2; assay = binding, competition with immobilised ligand; conditions = 3 µM; endpoint = remaining binding; result = 85%
Structure (SMILES) = COc1cc(Nc2nccc(-c3cnn4nc(OC)ccc34)n2)cc(C(F)(F)F)c1; assay = binding, competition with immobilised ligand; conditions = 1 µM; endpoint = remaining binding; result = 100%
Structure (SMILES) = C=CC(=O)N1Cc2nc(-c3cc(-c4cc(Cl)cnc4Cl)c(F)cc3F)n(-c3ccncn3)c2C1; assay = cell-free assay, inhibitor; conditions = 1 µM; endpoint = inhibition; result = 16%
Structure (SMILES) = N[C@H]1CC[C@H](Nc2nccc(-c3cccnc3Oc3ccc(NC(=O)NC4CC4)c4ccccc34)n2)CC1; assay = kinobead competition pulldown; system = HEK293/HCT116 lysate mixture; conditions = 10 µM, 1 h, 4 °C; how to read = lower = stronger competition; endpoint = log2 LFQ intensity; result = 23.1 and 22.8 and 22.3 and 21.5
Structure (SMILES) = CC(C)=CC1OC(C)(C)C2C=C3C(=O)C(Cl)=CC(O)C3C3C(O)C4OC4C(=O)C132 (centres unmarked); assay = cell-free assay, competition with immobilised ligand; conditions = 10 µM; endpoint = remaining binding; result = 91%
Structure (SMILES) = CCN1CCN(Cc2ccc(C(=O)Nc3ccc(C)c(NCc4cnc5[nH]ccc5c4OC)c3)cc2C(F)(F)F)CC1; assay = binding, competition with immobilised ligand; conditions = 1 µM; endpoint = remaining binding; result = 72%
Structure (SMILES) = Nc1ncc(-c2cc(-c3cnn(CC(F)(F)F)c3)ncc2F)nc1C(=O)NC1CNCC(F)C1 (centres unmarked); assay = enzyme activity; conditions = 1 µM; how to read = baseline: DMSO control; endpoint = remaining activity; result = 79.3%
Structure (SMILES) = NC(=O)[C@@H](O)C[C@H]1CCc2sc3ncnc(O[C@H]4CC[C@H](N5CCOCC5)CC4)c3c21; assay = enzyme activity, inhibitor; conditions = 10 µM; endpoint = inhibition; result = 28%
Structure (SMILES) = C=CC(=O)Nc1cccc(-c2cnc3[nH]cc(C(=O)NC(C)(C)C)c3n2)c1; assay = enzyme activity, inhibitor; conditions = 0.1 µM; endpoint = inhibition; result = 11%
Structure (SMILES) = CN1CCN(Cc2ccc(-c3ccc(CO[C@H]4CCC[C@@H]4NC(=O)c4cc(-c5cnn(C)c5)cnc4N)cc3)cc2)CC1; assay = enzyme activity, inhibitor; conditions = 0.1 µM; endpoint = inhibition; result = 11%

Excerpt of the above:
Structure (SMILES) = CCN1CCN(Cc2ccc(C(=O)Nc3ccc(C)c(NCc4cnc5[nH]ccc5c4OC)c3)cc2C(F)(F)F)CC1; assay = binding, competition with immobilised ligand; conditions = 1 µM; endpoint = remaining binding; result = 72%
